Results collected from several papers.
Each numbered part is a random draw from the data of one study; scales do not carry over between parts.
Sequence of UniProt Q9H1R3 (whole entry, looked up): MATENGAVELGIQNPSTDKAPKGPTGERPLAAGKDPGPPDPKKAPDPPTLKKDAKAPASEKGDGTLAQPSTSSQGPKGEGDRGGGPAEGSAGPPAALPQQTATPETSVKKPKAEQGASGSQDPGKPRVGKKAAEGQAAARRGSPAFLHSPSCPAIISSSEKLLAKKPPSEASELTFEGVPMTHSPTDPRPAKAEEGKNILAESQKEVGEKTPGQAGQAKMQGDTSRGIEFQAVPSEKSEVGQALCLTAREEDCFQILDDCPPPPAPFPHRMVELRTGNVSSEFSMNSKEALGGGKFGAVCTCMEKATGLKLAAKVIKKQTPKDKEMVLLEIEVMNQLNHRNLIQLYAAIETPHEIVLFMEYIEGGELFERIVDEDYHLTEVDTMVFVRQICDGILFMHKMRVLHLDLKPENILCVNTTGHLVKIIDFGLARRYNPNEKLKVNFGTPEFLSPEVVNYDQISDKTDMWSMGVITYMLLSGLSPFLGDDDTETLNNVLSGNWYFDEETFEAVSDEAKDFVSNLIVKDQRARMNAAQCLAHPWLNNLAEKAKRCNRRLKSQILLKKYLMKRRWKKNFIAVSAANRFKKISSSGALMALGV
Sequence of UniProt O95382 (whole entry, looked up): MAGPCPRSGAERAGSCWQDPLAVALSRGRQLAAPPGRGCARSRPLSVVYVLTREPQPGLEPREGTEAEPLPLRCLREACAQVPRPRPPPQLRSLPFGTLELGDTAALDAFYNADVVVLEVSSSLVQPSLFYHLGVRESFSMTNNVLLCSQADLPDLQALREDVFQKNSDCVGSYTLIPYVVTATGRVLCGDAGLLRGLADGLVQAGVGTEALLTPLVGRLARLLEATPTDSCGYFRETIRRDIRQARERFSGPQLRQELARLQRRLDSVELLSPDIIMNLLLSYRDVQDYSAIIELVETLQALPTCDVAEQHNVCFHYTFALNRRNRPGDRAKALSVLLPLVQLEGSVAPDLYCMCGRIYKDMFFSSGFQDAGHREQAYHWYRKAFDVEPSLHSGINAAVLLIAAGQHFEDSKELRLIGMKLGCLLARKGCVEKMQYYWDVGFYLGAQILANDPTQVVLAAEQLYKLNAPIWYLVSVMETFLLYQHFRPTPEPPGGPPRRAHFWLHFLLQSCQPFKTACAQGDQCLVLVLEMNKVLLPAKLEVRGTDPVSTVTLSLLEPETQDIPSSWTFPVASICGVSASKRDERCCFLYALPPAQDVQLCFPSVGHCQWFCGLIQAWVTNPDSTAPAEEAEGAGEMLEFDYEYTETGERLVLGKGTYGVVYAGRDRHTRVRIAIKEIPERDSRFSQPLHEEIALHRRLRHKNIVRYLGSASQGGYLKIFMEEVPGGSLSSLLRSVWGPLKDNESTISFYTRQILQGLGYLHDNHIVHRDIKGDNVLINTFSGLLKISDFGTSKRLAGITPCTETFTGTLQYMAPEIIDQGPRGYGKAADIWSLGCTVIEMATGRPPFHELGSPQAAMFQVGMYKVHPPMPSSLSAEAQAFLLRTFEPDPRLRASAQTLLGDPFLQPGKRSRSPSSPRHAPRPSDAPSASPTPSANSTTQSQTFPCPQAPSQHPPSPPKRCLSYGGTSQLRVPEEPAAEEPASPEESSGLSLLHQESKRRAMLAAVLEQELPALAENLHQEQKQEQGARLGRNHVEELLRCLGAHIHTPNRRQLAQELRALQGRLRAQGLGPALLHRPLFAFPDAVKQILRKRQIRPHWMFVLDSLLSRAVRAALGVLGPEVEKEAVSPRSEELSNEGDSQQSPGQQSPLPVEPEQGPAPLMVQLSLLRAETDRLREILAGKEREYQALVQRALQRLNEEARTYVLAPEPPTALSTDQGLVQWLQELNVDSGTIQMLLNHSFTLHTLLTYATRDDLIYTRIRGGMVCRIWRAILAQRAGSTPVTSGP
Sequence of UniProt Q14012 (whole entry, looked up): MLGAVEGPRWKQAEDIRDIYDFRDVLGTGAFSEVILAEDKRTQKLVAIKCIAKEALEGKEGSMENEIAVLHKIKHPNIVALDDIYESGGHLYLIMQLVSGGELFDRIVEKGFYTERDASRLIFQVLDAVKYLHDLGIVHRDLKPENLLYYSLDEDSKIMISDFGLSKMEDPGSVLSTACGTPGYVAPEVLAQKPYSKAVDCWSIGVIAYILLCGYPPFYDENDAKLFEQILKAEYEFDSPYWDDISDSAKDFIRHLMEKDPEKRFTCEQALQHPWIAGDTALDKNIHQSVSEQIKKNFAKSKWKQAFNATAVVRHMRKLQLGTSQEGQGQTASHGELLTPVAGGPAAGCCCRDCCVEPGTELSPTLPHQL
Sequence of UniProt P09769 (whole entry, looked up): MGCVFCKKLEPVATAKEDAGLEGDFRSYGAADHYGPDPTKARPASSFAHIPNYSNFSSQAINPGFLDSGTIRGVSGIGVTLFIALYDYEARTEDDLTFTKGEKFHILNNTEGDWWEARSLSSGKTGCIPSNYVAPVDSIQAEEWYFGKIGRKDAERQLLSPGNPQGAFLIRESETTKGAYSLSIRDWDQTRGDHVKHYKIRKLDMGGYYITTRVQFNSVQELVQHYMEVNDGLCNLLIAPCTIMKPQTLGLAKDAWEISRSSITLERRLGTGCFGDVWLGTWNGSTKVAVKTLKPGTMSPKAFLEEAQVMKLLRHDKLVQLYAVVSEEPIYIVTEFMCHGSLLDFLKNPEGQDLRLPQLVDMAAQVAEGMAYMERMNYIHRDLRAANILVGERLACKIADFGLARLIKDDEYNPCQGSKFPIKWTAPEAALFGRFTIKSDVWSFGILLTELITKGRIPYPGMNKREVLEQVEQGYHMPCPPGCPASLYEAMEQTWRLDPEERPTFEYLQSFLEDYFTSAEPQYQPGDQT
Sequence of UniProt P22607 (whole entry, looked up): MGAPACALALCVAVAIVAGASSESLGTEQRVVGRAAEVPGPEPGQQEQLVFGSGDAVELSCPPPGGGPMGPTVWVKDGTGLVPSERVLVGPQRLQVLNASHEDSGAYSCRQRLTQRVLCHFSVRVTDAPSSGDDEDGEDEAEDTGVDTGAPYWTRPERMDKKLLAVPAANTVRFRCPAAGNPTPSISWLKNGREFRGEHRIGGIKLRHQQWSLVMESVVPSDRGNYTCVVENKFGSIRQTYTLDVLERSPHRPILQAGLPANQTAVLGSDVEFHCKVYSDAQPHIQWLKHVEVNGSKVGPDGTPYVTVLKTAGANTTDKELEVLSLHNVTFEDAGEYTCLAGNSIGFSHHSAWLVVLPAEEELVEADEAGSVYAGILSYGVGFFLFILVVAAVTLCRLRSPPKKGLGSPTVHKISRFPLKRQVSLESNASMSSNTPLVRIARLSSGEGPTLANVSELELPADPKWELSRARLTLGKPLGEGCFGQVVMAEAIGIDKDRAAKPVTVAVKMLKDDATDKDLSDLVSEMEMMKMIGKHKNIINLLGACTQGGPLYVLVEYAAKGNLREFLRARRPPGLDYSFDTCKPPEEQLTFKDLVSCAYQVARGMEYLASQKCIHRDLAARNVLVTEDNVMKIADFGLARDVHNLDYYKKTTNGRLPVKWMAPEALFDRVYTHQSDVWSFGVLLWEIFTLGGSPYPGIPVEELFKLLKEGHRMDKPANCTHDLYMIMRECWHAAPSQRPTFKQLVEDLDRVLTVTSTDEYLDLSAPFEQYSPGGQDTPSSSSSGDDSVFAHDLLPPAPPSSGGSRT

Set 1
SMILES: Cn1nc(C(=O)NCc2ccc(C(=O)O)cc2)cc1-c1ccc2[nH]ccc2c1
Observed: cell-free assay
Technique: competition with immobilised ligand
Tested at: 0.1 µM
target	remaining binding [%]
MET (Homo sapiens, UniProt P08581, M1250T)	91
CAMK1 (Homo sapiens, UniProt Q14012)	95
MAP3K6 (Homo sapiens, UniProt O95382)	88
MYLK2 (Homo sapiens, UniProt Q9H1R3)	83
FGR (Homo sapiens, UniProt P09769)	87
FGFR3 (Homo sapiens, UniProt P22607)	93

Set 2
Target: Serine/threonine-protein kinase DCLK2 (DCLK2, Homo sapiens, UniProt Q8N568)
Sequence of UniProt Q8N568 (whole entry, looked up): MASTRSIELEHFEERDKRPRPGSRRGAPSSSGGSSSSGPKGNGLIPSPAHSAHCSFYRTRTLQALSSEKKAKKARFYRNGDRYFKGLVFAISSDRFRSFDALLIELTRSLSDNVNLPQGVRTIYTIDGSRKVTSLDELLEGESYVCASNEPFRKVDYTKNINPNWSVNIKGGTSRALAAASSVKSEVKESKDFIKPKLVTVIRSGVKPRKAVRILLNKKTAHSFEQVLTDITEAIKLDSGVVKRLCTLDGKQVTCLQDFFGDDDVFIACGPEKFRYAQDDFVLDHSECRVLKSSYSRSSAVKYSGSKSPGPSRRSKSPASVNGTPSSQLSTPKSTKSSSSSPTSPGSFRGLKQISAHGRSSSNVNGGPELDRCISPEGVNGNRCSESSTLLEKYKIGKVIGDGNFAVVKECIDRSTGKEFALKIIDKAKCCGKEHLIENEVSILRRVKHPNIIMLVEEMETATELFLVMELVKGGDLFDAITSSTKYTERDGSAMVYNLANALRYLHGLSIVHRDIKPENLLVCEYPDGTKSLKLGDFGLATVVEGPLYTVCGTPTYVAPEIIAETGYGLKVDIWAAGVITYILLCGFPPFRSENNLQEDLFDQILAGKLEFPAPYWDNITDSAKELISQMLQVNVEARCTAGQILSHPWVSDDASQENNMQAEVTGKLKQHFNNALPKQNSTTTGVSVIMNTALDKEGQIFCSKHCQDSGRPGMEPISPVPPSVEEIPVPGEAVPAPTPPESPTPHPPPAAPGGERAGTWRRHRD
Observed: enzyme activity
Action: inhibitor
Tested at: 0.5 µM
Baseline: control
Compound	remaining activity [%]
Nc1[nH]nc2nc3ccccc3nc12	94.6
COc1ccc(OC)c2c(=S)c3ccccc3[nH]c12	94.6
O=C1NC(=O)C(c2cn(CCCO)c3ncccc23)=C1c1cnccn1	90.1
COc1cc2ncnc(Nc3ccc(Oc4ccccc4)cc3)c2cc1OC	99.5
OCC(O)CCON=C1C(c2c(O)[nH]c3ccccc23)=Nc2ccccc21 (stereo not drawn)	86.4
CC(C)[C@H](CO)Nc1nc(Nc2cc(N)cc(Cl)c2)c2ncn(C(C)C)c2n1	105
O=c1c2ccccc2[nH]c(=S)n1CCN1CCC(=C(c2ccc(F)cc2)c2ccc(F)cc2)CC1	101
N#CC(C#N)=C(N)/C(C#N)=C/c1ccc(O)cc1	101
O=C1NC(=O)C(c2cn(CCCn3ccnc3)c3ccccc23)=C1Nc1ccccc1	96.3
CCOC(=O)c1c(C)[nH]c(/C=C2\C(=O)Nc3ccccc32)c1C	94.7
O=C(O)c1ccc2c3c1cccc3c(=O)n1c3ccccc3nc21	96.7
O=S(=O)(c1cccc2cnccc12)N1CCCNCC1	83.9
Cc1nc(-c2ccccc2)c(-c2ccncc2)o1	97

Set 3
Host: human
Matrix: microsomes or S9
Tested at: 2 µM
Time: 0.5 h
Structure (SMILES)	remaining compound [%]
Cc1cc(C(F)(F)F)nc(OCCCC#N)c1C(=O)C1C(=O)C2CCC(C2)C1=O (stereo not drawn)	86.2
CCN(C(=O)c1ccccc1)[C@@H]1CCO[C@H](c2ccc(C(=O)Nc3ncccc3C)cc2)C1	96.5
Cc1nc2n(n1)CC(Nc1ccc3nccnc3n1)CC2 (stereo not drawn)	91.6
c1ccc(-c2cn3c4ccccc4n(CCN4CCOCC4)c3n2)cc1	11.6

Set 4
Cell line: HuT78
Tested at: 2 µM
Time: 48 h
Baseline: untreated
Compound	viability [%]
Nc1ncnc2c1c(-c1cnc3[nH]ccc3c1)nn2C1CCCC1	40
COc1cc2ncnc(Nc3ccc(Cl)cc3F)c2cc1OC	125
O=C1Nc2ccc(I)cc2/C1=C/c1cc(Br)c(O)c(Br)c1	105
Cc1[nH]nc2ccc(-c3cncc(OC[C@@H](N)Cc4ccccc4)c3)cc12	11.1

Excerpt of the above (set 2):
Compound	remaining activity [%]
OCC(O)CCON=C1C(c2c(O)[nH]c3ccccc23)=Nc2ccccc21 (stereo not drawn)	86.4
CC(C)[C@H](CO)Nc1nc(Nc2cc(N)cc(Cl)c2)c2ncn(C(C)C)c2n1	105
